Assay results pooled from the literature.
Protocols differ between the studies behind these lines. Values joined by “and” are separate records of one study, mostly repeats; a detail may differ.
Target: Mitogen-activated protein kinase kinase kinase 4 (MAP3K4, Homo sapiens, UniProt Q9Y6R4)

COc1ccc(NC(=O)Nc2ccc3c(c2)C(=O)N(C(C)CO)CC(C)C(CN(C)Cc2ccc4c(c2)OCO4)O3)cc1 (stereo not drawn)
remaining binding (binding, competition with immobilised ligand; 10 µM): 86%

CC(C)=CC1OC(C)(C)C2C=C3C(=O)C(Cl)=CC(O)C3C3C(O)C4OC4C(=O)C132 (stereo not drawn)
remaining binding (cell-free assay, competition with immobilised ligand; 10 µM): 91%

CNC1C[S+]2CC[S+]3CC[S+](C1)[Ru-4]321([N]=C=S)[n]2c3ccc(OC)cc3c3c4c(c5cc(F)c[n+]1c5c32)C(=O)NC4=O (stereo not drawn)
remaining binding (KinomeScan; 0.1 µM; relative to: untreated): 100%

Cn1cc(-c2cnc3ccc(NC(=O)Nc4ccc5sccc5c4)cc3n2)cn1
inhibition (kinase binding, KiNativ profiling, refers to: Lys1 peptide; PANC-1 lysate; 2.5 µM): 4.7%

C=CC(=O)N1CCc2ccc(-n3c(=O)ccc4cnc5ccc(-c6cnn(C)c6)cc5c43)cc21
remaining binding (KINOMEscan; 1 µM; relative to: DMSO control): 100%

CCN1CCN(Cc2ccc(C(=O)Nc3ccc(C)c(NCc4cnc5[nH]ccc5c4OC)c3)cc2C(F)(F)F)CC1
remaining binding (binding, competition with immobilised ligand; 1 µM): 95%

C=CC(=O)N1CCCC(n2c(=O)c3ncccc3n(Cc3ccc(Oc4ccccc4)cc3)c2=O)C1 (stereo not drawn)
remaining binding (cell-free assay, competition with immobilised ligand; 1 µM): 90%

N[C@H]1CC[C@H](Nc2nccc(-c3cccnc3Oc3ccc(NC(=O)NC4CC4)c4ccccc34)n2)CC1
log2 LFQ intensity (kinobead competition pulldown; HEK293/HCT116 lysate mixture; 10 µM, 1 h, 4 °C; lower = stronger competition): 20.9 and 20.1 and 19.4 and 18.3

COc1cc(Nc2nccc(-c3cnn4nc(OC)ccc34)n2)cc(C(F)(F)F)c1
remaining binding (binding, competition with immobilised ligand; 1 µM): 97%

CC(=O)N1c2ccc(-c3ccc(CNC(=O)c4cn5cc(-c6cnc(N)nc6)nc(N6CCOCC6)c5n4)cc3)cc2CC[C@@H]1C
remaining binding (KINOMEscan; 10 µM): 98%

COc1c(Cl)cccc1Nc1c(-c2ccncc2C#C[C@@]2(C)CCCN2C(=O)/C=C/CN(C)C)[nH]c2c1C(=O)NCC2
remaining binding (binding, competition with immobilised ligand; 3 µM): 73%

C=C1CCCCCCCCCC(CO)C1=O (stereo not drawn)
remaining binding (cell-free assay, competition with immobilised ligand; 10 µM): 87%

CN1CCN(Cc2ccc(NC(=O)c3cccc(C#Cc4cnc(N)c5ncccc45)c3)cc2C(F)(F)F)CC1
remaining binding (cell-free assay, competition with immobilised ligand; 0.5 µM): 100%

Cc1ccc(-c2c(/C=C(\C#N)C(=O)NC(C)C)n(CCCO)c3ncnc(N)c23)cc1
remaining binding (cell-free assay, competition with immobilised ligand; 1 µM): 99%

Nc1ncc2c(n1)-c1c([nH]c3ccc(C4=CCOCC4)cc13)CCC2
remaining binding (binding, competition with immobilised ligand; 1 µM): 100%

CNC(=O)C1CCN(c2cc(C)c(F)cc2NC(=O)c2ccc(-c3cc(O)ccc3C)c(C)c2)CC1
remaining binding (binding, competition with immobilised ligand; 1 µM): 82%

CNS(=O)(=O)Nc1nccc(Cc2c(C)c3ccc(Oc4ncccc4F)cc3oc2=O)c1F
remaining binding (binding, competition with immobilised ligand; 10 µM): 88%

Cc1cnc2nc1Nc1cccc(c1)COC/C=C/COCc1cc(ccc1OCCN1CCOCC1)N2
remaining binding (binding; 0.1 µM): 100%

Excerpt of the above:
COc1cc(Nc2nccc(-c3cnn4nc(OC)ccc34)n2)cc(C(F)(F)F)c1
remaining binding (binding, competition with immobilised ligand; 1 µM): 97%

Cc1cnc2nc1Nc1cccc(c1)COC/C=C/COCc1cc(ccc1OCCN1CCOCC1)N2
remaining binding (binding; 0.1 µM): 100%
